Results from different studies.
Compare with care: the assays were run in different laboratories. ± marks the error that the study gave.
U2AF2: U2AF2 148-342 (Homo sapiens, UniProt P26368)
Chain of UniProt P26368 (whole entry, looked up): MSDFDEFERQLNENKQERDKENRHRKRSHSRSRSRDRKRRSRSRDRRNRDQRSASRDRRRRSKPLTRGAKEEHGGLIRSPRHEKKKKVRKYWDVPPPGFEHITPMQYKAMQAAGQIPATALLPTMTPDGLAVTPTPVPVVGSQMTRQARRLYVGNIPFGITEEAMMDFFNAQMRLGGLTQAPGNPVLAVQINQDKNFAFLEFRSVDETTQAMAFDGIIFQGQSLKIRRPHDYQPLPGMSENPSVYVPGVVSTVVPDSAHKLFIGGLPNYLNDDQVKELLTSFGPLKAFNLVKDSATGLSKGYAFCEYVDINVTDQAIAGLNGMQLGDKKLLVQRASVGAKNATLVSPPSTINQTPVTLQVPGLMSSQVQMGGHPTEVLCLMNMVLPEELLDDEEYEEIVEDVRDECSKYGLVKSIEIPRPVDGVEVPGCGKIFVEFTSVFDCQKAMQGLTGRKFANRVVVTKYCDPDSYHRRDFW
B1: CASP2 170-452 D333A/D347A (Homo sapiens, UniProt P42575); sequence looked up; chain GPVCLQVKPCTPEFYQTHFQLAYRLQSRPRGLALVLSNVHFTGEKELEFRSGGDVDHSTLVTLFKLLGYDVHVLCDQTAQEMQEKLQNFAQLPAHRVTDSCIVALLSHGVEGAIYGVDGKLLQLQEVFQLFDNANCPSLQNKPKMFFIQACRGDETDRGVDQQAGKNHAGSPGCEESAAGKEKLPKMRLPTRSDMICGYACLKGTAAMRNTKRGSWYIEALAQVFSERACDMHVADMLVKVNALIKDREGYAPGTEFHRCKEMSEYCSTLCRHLYLFPGHPPT
B2: Saro_1862 1-406 (Novosphingobium aromaticivorans, UniProt Q2G771); chain MTDKPSVLFICTQDTEEEEARFTRAALEAAGVEVVHLDPSVRRSLGGAEISPEMVAQAGGMTIEEVRALGHEGKCQDAMIRGAIAAAHEWDARHPVSGILAVGGSMGSALAGALMQSFPYGLPKLIVSTMASGFTKPYMGVKDIAMMNAVTDISGINTISRDVFRNAANAVAGMAKGYDRDKGPEKPLVLITTLGTTETSVKRIRQALESDGCEVMVFHSSGAGGPTLDGLAADKDVALVLDLSPTEILDHLFGGLADAGPDRGRAALRKGIPTILAPGNADFIIGGPIDAAEAQFPGRRYHQHNPQLTAVRTNVADLRKLADHLAANVREAKGPVRVFTPLKGFSSHDSETGHLLDLSVPGPFAEYLASVMPGHVPVTAVDAHFNDEAFSSAVIAAAREMLAAKN
B3: Bri2 BRICHOS 113-231 (Homo sapiens, UniProt Q9Y287); sequence looked up; chain QTIEENIKIFEEEEVEFISVPVPEFADSDPANIVHDFNKKLTAYLDLNLDKCYVIPLNTSIVMPPRNLLELLINIKAGTYLPQSYLIHEHMVITDRIENIDHLGFFIYRLCHDKETYKL
B4: ilvA 335-514 F352A (Escherichia coli, UniProt P04968); sequence looked up; chain EQREALLAVTIPEEKGSALKFCQLLGGRSVTEFNYRFADAKNACIFVGVRLSRGLEERKEILQMLNDGGYSVVDLSDDEMAKLHVRYMVGGRPSHPLQERLYSFEFPESPGALLRFLNTLGTYWNISLFHYRSHGTDYGRVLAAFELGDHEPDFETRLNELGYDCHDETNNPAFRFFLAG
B5: SPA2 389-535 (Saccharomyces cerevisiae, UniProt P23201); Alexa 488 label; sequence looked up; chain LKITDGFISKYSSADGLIPAQYILNANNLIIQFTTRLSAVPIGDSTAISHQIGEELFQILSQLSNLISQLLLSADLLQYKDQVILLKASLSHAITSIRYFSVYGPVLIPKITVQAAVSEVCFAMCNLIDSAKIKSDSNGESTTSNEG
B6: trfB Q53E (Escherichia coli, UniProt P03052); sequence looked up; chain MKKRLTESQFQEAIQGLEVGQQTIEIARGVLVDGKPQATFATSLGLTRGAVSEAVHRVWAAFEDKNLPEGYARVTAVLPEHQAYIVRKWEADAKKKQETKR
B7: BAK1 22-186 (Homo sapiens, UniProt Q16611); sequence looked up; chain ASEEQVAQDTEEVFRSYVFYRHQQEQEAEGVAAPADPEMVTLPLQPSSTMGQVGRQLAIIGDDINRRYDSEFQTMLQHLQPTAENAYEYFTKIATSLFESGINWGRVVALLGFGYRLALHVYQHGLTGFLGQVTRFVVDFMLHHCIARWIAQRGGWVAALNLGNG
B8: POL30 1-258 (Saccharomyces cerevisiae, UniProt P15873); chain MLEAKFEEASLFKRIIDGFKDCVQLVNFQCKEDGIIAQAVDDSRVLLVSLEIGVEAFQEYRCDHPVTLGMDLTSLSKILRCGNNTDTLTLIADNTPDSIILLFEDTKKDRIAEYSLKLMDIDADFLKIEELQYDSTLSLPSSEFSKIVRDLSQLSDSINIMITKETIKFVADGDIGSGSVIIKPFVDMEHPETSIKLEMDQPVDLTFGAKYLLDIIKGSSLSDRVGIRLSSEAPALFQFDLKSGFLQFFLAPKFNDEE
B9: PF1070 1-140 W108A (Pyrococcus furiosus, UniProt Q8U1Y4); sequence looked up; chain MPSSSKSDFSFSTLIIPQHYLRAILKVVSSSSVEVCGFLFGKENRVLKVRFIRNRLNSPVEFEMDPEEMLKALEEAEQENLEVVGIFHSHIACPPIPSGKDLEGMKRAPVIWLIVNEKGEYKAWILSEKNKISEVKIVVE
B10: cfbA 1-143 S11M (Methanocaldococcus jannaschii, UniProt Q58380); chain MEALVLVGHGMRLPYSKELLVKLAEKVKERNLFPIVEIGLMEFSEPTIPQAVKKAIEQGAKRIIVVPVFLAHGIHTTRDIPRLLGLIEDNHEHHHEHSHHHHHHHHHEHEKLEIPEDVEIIYREPIGADDRIVDIIIDRAFGR
B11: phage phi29 gene 12 product D4 domain 692-854 D701G/S777N/G817S (bacteriophage phi29, UniProt P20345); sequence looked up; chain DFAEYFESLGGQVIETGYLVTLEKGKIRKAEKGEKIIGVISETAGFVLGESSFEWQGAVLKNEFGGIIYEEVTTEDGVKFKRPLPNPDFDPNKNYIPRSQRREWHVVGLLGQIAVRIDETVKQGHSIDAVGGVATDGDNFIVQEITTPYTKEKGYGVAIVLVK
B12: human CDK4; sequence looked up; chain ATSRYEPVAEIGVGAYGTVYKARDPHSGHFVALKSVRVPNGGGGGGGLPISTVREVALLRRLEAFEHPNVVRLMDVCATSRTDREIKVTLVFEHVDQDLRTYLDKAPPPGLPAETIKDLMRQFLRGLDFLHANCIVHRDLKPENILVTSGGTVKLADFGLARIYSYQMALTPVVVTLWYRAPEVLLQSTYATPVDMWSVGCIFAEMFRRKPLFCGNSEADQLGKIFDLIGLPPEDDWPRDVSLPRGAFPPRGPRPVQSVVPEMEESGAQLLLEMLTFNPHKRISAFRALQHSYLHKDEGNPE
B13: eno (Escherichia coli, UniProt P0A6P9); sequence looked up; chain MSKIVKIIGREIIDSRGNPTVEAEVHLEGGFVGMAAAPSGASTGSREALELRDGDKSRFLGKGVTKAVAAVNGPIAQALIGKDAKDQAGIDKIMIDLDGTENKSKFGANAILAVSLANAKAAAAAKGMPLYEHIAELNGTPGKYSMPVPMMNIINGGEHADNNVDIQEFMIQPVGAKTVKEAIRMGSEVFHHLAKVLKAKGMNTAVGDEGGYAPNLGSNAEALAVIAEAVKAAGYELGKDITLAMDCAASEFYKDGKYVLAGEGNKAFTSEEFTHFLEELTKQYPIVSIEDGLDESDWDGFAYQTKVLGDKIQLVGDDLFVTNTKILKEGIEKGIANSILIKFNQIGSLTETLAAIKMAKDAGYTAVISHRSGETEDATIADLAVGTAAGQIKTGSMSRSDRVAKYNQLIRIEEALGEKAPYNGRKEIKGQA
Chain of UniProt Q9IAL8 (whole entry, looked up): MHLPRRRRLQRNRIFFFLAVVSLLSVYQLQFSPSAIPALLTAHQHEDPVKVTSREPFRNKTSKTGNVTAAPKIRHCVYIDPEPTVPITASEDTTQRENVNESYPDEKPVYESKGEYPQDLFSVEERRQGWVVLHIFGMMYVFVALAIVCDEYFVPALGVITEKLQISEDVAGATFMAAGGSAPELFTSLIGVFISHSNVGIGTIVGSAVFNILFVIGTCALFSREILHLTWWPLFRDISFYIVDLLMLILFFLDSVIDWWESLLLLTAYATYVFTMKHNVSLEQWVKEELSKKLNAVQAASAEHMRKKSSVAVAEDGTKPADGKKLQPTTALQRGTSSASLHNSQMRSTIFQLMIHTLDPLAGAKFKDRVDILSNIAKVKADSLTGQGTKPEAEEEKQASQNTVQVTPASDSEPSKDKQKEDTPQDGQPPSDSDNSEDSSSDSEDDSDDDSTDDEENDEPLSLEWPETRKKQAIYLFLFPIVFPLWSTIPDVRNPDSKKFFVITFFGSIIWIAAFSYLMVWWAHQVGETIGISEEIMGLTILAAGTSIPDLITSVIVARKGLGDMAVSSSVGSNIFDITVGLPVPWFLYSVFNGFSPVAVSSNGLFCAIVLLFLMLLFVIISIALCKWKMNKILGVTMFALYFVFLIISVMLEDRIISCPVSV
Chain of UniProt Q9UBH6 (whole entry, looked up): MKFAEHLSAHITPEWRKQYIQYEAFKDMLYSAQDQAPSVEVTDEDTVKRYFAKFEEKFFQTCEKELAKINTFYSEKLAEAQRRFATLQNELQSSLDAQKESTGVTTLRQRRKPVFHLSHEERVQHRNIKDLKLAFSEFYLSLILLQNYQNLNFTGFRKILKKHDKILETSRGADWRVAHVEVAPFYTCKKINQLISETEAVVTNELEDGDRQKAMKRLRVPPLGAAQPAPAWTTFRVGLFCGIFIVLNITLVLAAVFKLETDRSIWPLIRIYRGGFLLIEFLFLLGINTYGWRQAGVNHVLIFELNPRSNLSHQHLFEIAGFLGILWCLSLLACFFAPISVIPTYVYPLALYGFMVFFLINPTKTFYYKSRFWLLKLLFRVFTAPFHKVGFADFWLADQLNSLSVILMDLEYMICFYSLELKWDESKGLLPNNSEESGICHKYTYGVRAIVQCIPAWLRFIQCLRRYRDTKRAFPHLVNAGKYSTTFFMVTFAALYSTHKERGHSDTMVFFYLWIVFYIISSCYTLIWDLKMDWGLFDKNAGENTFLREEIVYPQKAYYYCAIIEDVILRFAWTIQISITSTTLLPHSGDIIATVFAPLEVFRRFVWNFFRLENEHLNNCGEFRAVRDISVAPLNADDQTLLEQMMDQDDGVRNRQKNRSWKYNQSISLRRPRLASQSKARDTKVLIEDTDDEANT
Chain of UniProt P26497 (whole entry, looked up): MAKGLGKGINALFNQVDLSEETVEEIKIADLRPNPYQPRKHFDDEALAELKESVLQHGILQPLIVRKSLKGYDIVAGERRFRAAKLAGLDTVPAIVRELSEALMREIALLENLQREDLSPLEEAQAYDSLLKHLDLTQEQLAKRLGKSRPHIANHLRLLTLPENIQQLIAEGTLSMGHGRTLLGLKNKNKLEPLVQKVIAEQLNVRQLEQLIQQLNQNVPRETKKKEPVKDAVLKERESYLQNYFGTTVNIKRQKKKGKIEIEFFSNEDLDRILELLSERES

B1 (CASP2 170-452 D333A/D347A) — subunits per oligomer (itself; SEC): 2
spo0J (Bacillus subtilis, UniProt P26497) — subunits per oligomer (itself; SEC-MALS): 2
B2 (Saro_1862 1-406) — subunits per oligomer (itself; SEC): 2
human ME2 R67A — Hill coefficient (enzyme activity, NADH absorbance; without fumarate, with: L-malate varied): 1.2 ± 0.28
XPR1 (Homo sapiens, UniProt Q9UBH6) — subunits per oligomer (itself; cryo-EM): 2
B3 (Bri2 BRICHOS 113-231) — subunits per oligomer (itself; SAXS): 2
B4 (ilvA 335-514 F352A) — subunits per oligomer (itself; crystal structure; with: isoleucine): 2
B5 (SPA2 389-535) — subunits per oligomer (itself; SEC; broad peak): 4
B6 (trfB Q53E) — subunits per oligomer (itself; SEC): 2
B7 (BAK1 22-186) — subunits per oligomer (itself; SEC-MALS): 2
B8 (POL30 1-258) — subunits per oligomer (itself; native gel): 3
AUUUUAUUC (ssRNA) — Kd (U2AF2; sequencing of bound RNA; RNA; motif only): 2.31 µM
B9 (PF1070 1-140 W108A) — subunits per oligomer (itself; SEC): 2
ptcA fragment (Enterococcus faecalis) (sequence not shown) — subunits per oligomer (itself; cross-linking; pH 8.25): 3
human eIF4A1 — log2 fold change (CYB5R4 knockout human cells; PP4 interaction, 3xFLAG-PP4C IP-MS; concentration not given; reference: CYB5R4 KO over parental): -1.12
B10 (cfbA 1-143 S11M) — subunits per oligomer (itself; SEC): 2
B11 — subunits per oligomer (itself; crystal structure): 3
SLC24A1 (Gallus gallus, UniProt Q9IAL8) — subunits per oligomer (itself; cross-linking): 2
B12 (human CDK4) — log2 fold change (CYB5R4 knockout human cells; PP4 interaction, 3xFLAG-PP4C IP-MS; concentration not given; reference: CYB5R4 KO over parental): -0.56
AGUUUUUUU (ssRNA) — Kd (U2AF2; sequencing of bound RNA; RNA; motif only): 2.23 µM
B13 (eno) — subunits per oligomer (itself; native MS): 2

For quick reference, copied from above:
human eIF4A1 — log2 fold change (CYB5R4 knockout human cells; PP4 interaction, 3xFLAG-PP4C IP-MS; concentration not given; reference: CYB5R4 KO over parental): -1.12
B10 (cfbA 1-143 S11M) — subunits per oligomer (itself; SEC): 2
B11 — subunits per oligomer (itself; crystal structure): 3
